# Assay results collected from several papers.
# Parts stem from different laboratories: compare values within a part only.

# Study 1 — method: protein binding microarray; form: double-stranded DNA, one strand shown; matrix: in vitro; concentration: not given; reference: not given; direction: higher = stronger binding
# Target: Histone acetyltransferase KAT6A, winged helix 2, GST fusion (KAT6A, Homo sapiens, UniProt Q92794, residues 85-181)
# Setting: 8-mer, flanks averaged, mean of 2 arrays, mostly near background
# Residues (chain): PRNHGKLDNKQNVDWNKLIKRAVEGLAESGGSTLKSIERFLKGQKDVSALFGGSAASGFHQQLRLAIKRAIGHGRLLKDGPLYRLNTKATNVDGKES
Sequence,E-score
ACTGCGTC,0.0568
AAGGTGAG,-0.125
AAGCGTGA,-0.0901
CATATACA,0.121
GGACCGAC,0.123
TCACGGGA,-0.074
AGAGAAGC,0.0598

# Study 2 — method: universal PBM; form: double-stranded DNA, one strand shown; matrix: in vitro; concentration: not given; direction: higher = stronger binding
# Target: Sal-like protein 4, full length isoform B (SALL4, Homo sapiens, UniProt Q9UJQ4-2, residues 1-616)
# Setting: 8-mer, flanks averaged, mean of replicates
# Residues (chain): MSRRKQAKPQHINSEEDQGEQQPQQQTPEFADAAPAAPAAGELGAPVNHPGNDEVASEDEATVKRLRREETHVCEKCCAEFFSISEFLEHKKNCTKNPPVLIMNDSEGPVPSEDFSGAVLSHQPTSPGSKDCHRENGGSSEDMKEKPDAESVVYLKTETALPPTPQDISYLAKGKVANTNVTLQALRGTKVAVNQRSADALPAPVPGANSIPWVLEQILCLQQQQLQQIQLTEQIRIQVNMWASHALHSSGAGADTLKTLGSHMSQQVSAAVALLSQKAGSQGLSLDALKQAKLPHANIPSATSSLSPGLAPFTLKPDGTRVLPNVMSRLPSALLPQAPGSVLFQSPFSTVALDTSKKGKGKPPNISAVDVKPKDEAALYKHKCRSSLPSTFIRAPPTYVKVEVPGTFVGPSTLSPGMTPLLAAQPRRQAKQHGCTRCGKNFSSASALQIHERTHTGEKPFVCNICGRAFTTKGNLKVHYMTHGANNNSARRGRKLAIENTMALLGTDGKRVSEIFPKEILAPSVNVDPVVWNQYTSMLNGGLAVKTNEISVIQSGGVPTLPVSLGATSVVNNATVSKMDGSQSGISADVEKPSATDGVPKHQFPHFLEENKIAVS
Sequence,E-score
TACCAAAA,0.235
ATGTCTTA,0.16
CATACTCC,0.107
AGCTAGGA,-0.161

# Study 3 — method: protein-binding microarray; form: double-stranded DNA, one strand shown; matrix: in vitro; concentration: 0.8 µM; setting: whole 60-bp probe, no competitor; direction: higher = stronger binding
# Target: Centromere-binding protein 1, full length, N-terminal tag (CBF1, Saccharomyces cerevisiae, UniProt P17106, residues 1-351)
# Sequence of UniProt P17106 (whole entry, looked up): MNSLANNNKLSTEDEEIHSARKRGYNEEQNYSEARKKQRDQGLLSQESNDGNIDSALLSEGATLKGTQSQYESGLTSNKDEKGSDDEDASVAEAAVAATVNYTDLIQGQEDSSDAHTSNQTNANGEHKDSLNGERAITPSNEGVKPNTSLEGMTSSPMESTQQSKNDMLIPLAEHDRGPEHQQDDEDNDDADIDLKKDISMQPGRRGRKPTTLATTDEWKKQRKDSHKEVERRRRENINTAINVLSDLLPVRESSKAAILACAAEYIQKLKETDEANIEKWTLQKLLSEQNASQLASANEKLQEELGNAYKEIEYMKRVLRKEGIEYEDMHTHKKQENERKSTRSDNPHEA
Sequence,fluorescence intensity [a.u.]
GAATTTTGGCAGCATGATGCAACCACATTGCACTAGGTCTTGATTCGCTTGACGCTGCTG,569
CTATCACTTTTTTTACATGTGCTTATATTTAACTTCGTCTTGATTCGCTTGACGCTGCTG,1000
CTACTTAAATATAGGCACGGGTGTTTAAAGCCGTTCGTCTTGATTCGCTTGACGCTGCTG,732
CTACCGTCCTCTACTCATGTGATTCGAACTATGTTCGTCTTGATTCGCTTGACGCTGCTG,1280

# Other studies, line by line
Substance,target,test,test system,conditions,scale,measurement,result
"PhoQ, residues 284 288 289 292 302 303 SIHLQL","PhoP, residues 12 14 15 18 19 SEGLL (Escherichia coli, UniProt P23836)","Sort-seq, refers to: YFP reporter",E. coli,"PhoQ-PhoP variant library, with: 10 µM Mg2+","reference: high Mg2+ state, higher = stronger signaling",fold induction,11.4

# For quick reference, copied from above (study 2):
Sequence,E-score
TACCAAAA,0.235
ATGTCTTA,0.16
